# Measurements pooled from the literature.
# Each line is one published result; not all experiments were run side by side. “And” joins repeats or separate records; there may be more than shown. ± gives the spread as reported.
SMILES,assay,test system,setting,how to read,measurement,value
CC(C)c1nc(N(C)S(C)(=O)=O)nc(-c2ccc(F)cc2)c1/C=C/[C@@H](O)C[C@@H](O)CC(=O)O,,"human, HIV-infected, plasma",median after treatment,,non-HDL cholesterol,2.6 mmol/L
CSCCNc1nc(SCCC(F)(F)F)nc2c1ncn2[C@@H]1O[C@H](COP(=O)(O)OP(=O)(O)C(Cl)(Cl)P(=O)(O)O)[C@@H](O)[C@H]1O,"platelet aggregation, light transmission aggregometry","human patients, platelet-rich plasma","dose not given, 2 h, added: TRAP 15 µM",,patients with IPA above 80%,5%
Cc1cnc(N2CC3(CCOCC3)C2)c(C(=O)Nc2ccc(C(=O)N3CCc4cc(C(=O)Nc5c(C)cccc5F)sc4-c4ccccc43)cc2)c1,item: RANTES,"human RSV infection, plasma","dose not given, AUC, ITT-IS population",baseline: placebo,inhibition,18%
O=C(OC(C(F)(F)F)C(F)(F)F)N1CCN(Cc2cccc(Oc3ccccc3)c2)CC1,PET blocking study,"rhesus monkey, brain thalamus","intravenous, 0.03 mg/kg, compound pretreatment, added: [18F]T-401 tracer",,volume of distribution,4.1 mL/cm3
Cc1cnc(Nc2ccc(OCCN3CCCC3)cc2)nc1Nc1cccc(S(=O)(=O)NC(C)(C)C)c1,,BALB/c mice rhEPO-induced polycythemia,120 mg/kg,,reticulocytes,10% and 9.44% and 10.8% and 9.97% and 9.37% and 10.1%
COc1ccc2c3c([nH]c2c1)[C@H](CC(C)C)N1C(=O)[C@H](CC(=O)NC(C)C)NC(=O)[C@@H]1C3,item: protoporphyrin IX,"Fech-mutant mice, serum","oral, 100 mg/kg, 0.5 h",,serum concentration,309 ng/mL and 295 ng/mL
c1ccc(-c2n[nH]cc2-c2ccnc3ccccc23)nc1,"kinase binding, competitor, MIB/MS competition, item: SSK2",Candida albicans cell lysate,100 nM,baseline: DMSO,log2 fold change,0.705
Cc1ccc([C@@H]2O[C@H](CO)[C@@H](O)[C@H](O)[C@H]2O)cc1Cc1ccc(-c2ccc(F)cc2)s1,,Japanese type 2 diabetes patients,"200 mg, day 1",baseline: day 0,"change, mean 24 h, plasma glucose",-30 mg/dL
[Mn+2],flow cytometry,"CD4-low T cells from PBMC, BALB/c mouse",dose not given,baseline: no Mn2+,CD18-high cell fraction,7.66 and 21 and 5.1 and 8.45 and 8.92 and 19.5 and 16 and 4.7
CC(C)NCC(O)c1ccc(O)c(O)c1 (stereo not drawn),,"ventricular cardiomyocytes, C57BL/6 mouse","dose not given, 0.792 s",,sarcomere length,1.67 µm
Cc1nc(N(Cc2ccccc2)c2ccc3c(c2)/C(=C/c2ccccc2)C(=O)N3Cc2ccccc2)c2ccccc2n1 (mixture of isomers),,mouse LLC syngeneic tumour,"ip, 15 mg/kg every two days, 14 days",,tumour weight,0.75 g
C[C@H](Oc1ccc(Br)cc1-c1ccon1)C(=O)O,"peak grip force, handgrip dynamometry",healthy human,"100 mg, SAD",,difference from placebo,-1.95 kg
C[C@H]1O[C@@H](O[C@H]2CC[C@@]3(C)[C@@H](CC[C@]4(C)[C@@H]3C=C[C@]35OC[C@@]6(CCC(C)(C)C[C@H]63)[C@@H](O)C[C@]54C)[C@]2(C)CO)[C@H](O)[C@@H](O[C@@H]2O[C@H](CO)[C@@H](O)[C@H](O)[C@H]2O)[C@H]1O,,"pair-fed control mice, no ethanol, plasma","oral, 15 mg/kg/day",,total cholesterol,1.08 mM and 1.43 mM and 1.4 mM and 1.25 mM and 1.39 mM
OC(CCN1CCCCC1)(c1ccccc1)C1CC2C=CC1C2 (stereo not drawn),resting-state EEG,healthy elderly humans,"oral, 4 mg, eyes closed, LS mean",,"power, theta EEG, Fz-Cz",3.2 µV²
COc1ccccc1[C@H](Cn1c(=O)n(C(C)(C)C(=O)O)c(=O)c2c(C)c(-c3ncco3)sc21)OC1CCOCC1,"[1-13C]acetate infusion, isotopomer analysis","overweight or obese healthy men, plasma VLDL-TG palmitate","oral, 200 mg single dose, 4 h post-dose, added: oral fructose",,fractional hepatic DNL,5.47 % new palmitate
Cc1noc(C)c1-c1cc(C(O)(c2ccccn2)c2ccccn2)c2nc(C3CC3)[nH]c2c1,item: HEXIM1 expression,"human, peripheral blood","1.4 mg, day 8, 1599 study",,maximum induction,32.3%
Cn1cc(Nc2nccc(-c3ccc4c(c3)CN(C3COC3)CC[C@H]4NC(=O)c3cn(C(C)(C)C)nn3)n2)cn1,item: thyroid cancer signaling,"splenic B cells, mice","30 mg/kg, IgD-activated in vivo","baseline: vehicle, direction not given",pathway activation z-score,2.11
COc1cc(-c2ccccc2)ncc1C(=O)Nc1ccc2c(=O)[nH]c(-c3ccc(C(C)(C)O)cc3)nc2c1,"RNA-seq GSEA, item: HALLMARK_MYC_TARGETS_V1","organoids, small intestinal, Apc Q1405X, mouse","dose not given, knockout organoids","baseline: DMSO, direction not given",normalized enrichment score,-2.22
CN[C@@H]1COc2c(S(=O)(=O)NC(=O)Nc3c4c(cc5c3CCC5)CCC4)cnn2C1,item: IL-1β,"human participants, whole blood ex vivo","900 mg twice daily, multiple doses, 8 h, added: LPS/ATP",baseline: baseline,inhibition,99.7%
N#Cc1ccc2c(-c3ccncc3)c(-c3ccc(F)cc3)nn2c1,"kinase binding, competitor, MIB/MS competition, item: AKL1",Candida albicans cell lysate,1 µM,baseline: DMSO,log2 fold change,0.0514
CCN1CCN(Cc2ccc(Nc3ncc(F)c(-c4cc(F)c5nc6n(c5c4)[C@H](C)CCC6)n3)nc2)CC1,,human advanced solid tumours,"100 mg, phase Ia monotherapy RECIST 1.1",,progressive disease,25%
CN(C)C(=O)Oc1cccc([N+](C)(C)C)c1,neuromuscular block reversal,rat,"dose not given, 7 (unit not given), added: cisatracurium",baseline: T1 twitch,train-of-four ratio,53.4
CC1(C)CCC2(CC1)N[C@@H](C(=O)N[C@@H]1CC[C@@H](C(N)=O)OC1)[C@H](c1ccnc(Cl)c1F)[C@]21C(=O)Nc2cc(Cl)ccc21,,"human, solid tumours","60 mg/day, RECIST",baseline: patients,progressive disease,33.3%
O=C(O)/C=C/c1nccc2c3ccccc3n(Cc3ccc(Br)cc3)c12,,"mouse, acute hyperuricaemia model","oral, 2 mg/kg",,decrease in serum uric acid,13.1%
COc1ccc2c(c1)CC[C@@H]1[C@@H]2CC[C@]2(C)[C@@H](NCCCCCCN3C(=O)C=CC3=O)CC[C@@H]12,immunostaining,"humanized mouse, SAH model, middle cerebral artery",dose not given,,p-PKC level,6.94 MFI and 7.23 MFI and 9.01 MFI
O=C(COc1ccc(Cl)cc1)NC12CC(c3nnc([C@H]4C[C@@H](OC(F)(F)F)C4)o3)(C1)C2,,"healthy human, PBMC","oral, 45 mg single dose, day 1, 4 h post-dose, median, added: sodium arsenite ex vivo",baseline: baseline,CHAC1 mRNA change,-20.4%
O=C(O)CNC(=O)Cc1ccccc1,,"ventricular cardiomyocytes, C57BL/6 mouse","dose not given, 0.236 s",,sarcomere length,1.64 µm
COc1cc(Nc2ncc3c(n2)-c2ccc(Cl)cc2C(c2c(F)cccc2OC)=NC3)ccc1C(=O)O,,"mouse, NB-1643 neuroblastoma xenograft","oral, 20.8 mg/kg, day 14",baseline: vehicle,relative tumour volume T/C,0.41
CC1(C)CCC(CN2CCN(c3ccc(C(=O)NS(=O)(=O)c4ccc(NCC5CCOCC5)c([N+](=O)[O-])c4)c(Oc4cnc5[nH]ccc5c4)c3)CC2)=C(c2ccc(Cl)cc2)C1,cell killing,"canine blood CD3+ T cells, dog 33",24 h,,EC50,56 nM
CC(C)c1c(C(=O)Nc2ccccc2)c(-c2ccccc2)c(-c2ccc(F)cc2)n1CC[C@@H](O)C[C@@H](O)CC(=O)O,,"cynomolgus monkey, female, serum","40 mg/kg or 25 mg/kg, day 176, 4224 h",,total cholesterol,157 mg/dL
COc1cc2cc(-c3ccc(CC(=O)Nc4cc(C(C)(C)C(F)(F)F)no4)cn3)cnc2cc1OC,RECIST v1.1,human RET-altered solid tumours,"12 75 mg tablets, phase I",,best overall response PR,17%
N#Cc1ccn2c(-c3ccncc3)c(-c3ccc(F)cc3)nc2c1,"kinase binding, competitor, MIB/MS competition, item: PBS2",Candida albicans cell lysate,100 nM,baseline: DMSO,log2 fold change,-0.435
CC(=O)NCC(=O)NCC(=O)N[C@H](C(=O)N[C@@H](Cc1ccc(O)cc1)C(=O)N[C@@H](CO)C(=O)N[C@H]1CSSC[C@@H](C(=O)N[C@@H](CCCNC(=N)N)C(=O)N2CCC[C@H]2C(=O)N[C@@H](CCC(N)=O)C(=O)N[C@@H](CCCNC(=N)N)C(=O)NCC(=O)NCCC(=O)N[C@@H](CCCCNC(=O)CN(CC(=O)NCCCC[C@H](NC(=O)CCNC(=O)CNC(=O)[C@H](CCCNC(=N)N)NC(=O)[C@H](CCC(N)=O)NC(=O)[C@@H]2CCCN2C(=O)[C@H](CCCNC(=N)N)NC(=O)[C@@H]2CSSC[C@H](NC(=O)[C@H](CO)NC(=O)[C@H](Cc3ccc(O)cc3)NC(=O)[C@@H](NC(=O)CNC(=O)CNC(C)=O)[C@@H](C)O)C(=O)N[C@@H](Cc3c[nH]cn3)C(=O)N[C@@H](Cc3ccccc3)C(=O)NCC(=O)N[C@@H](C)C(=O)N[C@@H](CC(C)C)C(=O)N[C@@H]([C@@H](C)O)C(=O)N[C@@H](Cc3c[nH]c4ccccc34)C(=O)N[C@@H](C(C)C)C(=O)N2)C(N)=O)C(=O)CCN)C(N)=O)NC(=O)[C@H](C(C)C)NC(=O)[C@H](Cc2c[nH]c3ccccc23)NC(=O)[C@H]([C@@H](C)O)NC(=O)[C@H](CC(C)C)NC(=O)[C@H](C)NC(=O)CNC(=O)[C@H](Cc2ccccc2)NC(=O)[C@H](Cc2c[nH]cn2)NC1=O)[C@@H](C)O,,healthy BALB/c mice,"subcutaneous, 0.08 mg/kg, 6 d, single dose",,reticulocytes,6.7%
CCOCc1nc(O)c(-c2nnc(Cc3ccc(Cl)cn3)o2)c(O)c1-c1c(OC)cccc1OC,,anaesthetised rat,"intravenous infusion, 1 µg/kg/min for 15 min",baseline: baseline,heart rate change,2 ± 0.5%
CC(C)[C@H](C(=O)Nc1ccc(C(=O)NO)cc1)c1ccccc1,,"human, right ear",9 months after treatment,,pure tone average,12 dB
C[C@H](NC(=O)c1c(C(F)F)nn(C)c1Oc1cccc(C(F)(F)F)c1)c1ccc(C(=O)O)cc1,,"human, advanced tumours","250 mg, irRECIST",,partial response,0%

# Some of these lines once more:
SMILES,assay,test system,setting,how to read,measurement,value
Cc1ccc([C@@H]2O[C@H](CO)[C@@H](O)[C@H](O)[C@H]2O)cc1Cc1ccc(-c2ccc(F)cc2)s1,,Japanese type 2 diabetes patients,"200 mg, day 1",baseline: day 0,"change, mean 24 h, plasma glucose",-30 mg/dL
c1ccc(-c2n[nH]cc2-c2ccnc3ccccc23)nc1,"kinase binding, competitor, MIB/MS competition, item: SSK2",Candida albicans cell lysate,100 nM,baseline: DMSO,log2 fold change,0.705
CC(C)NCC(O)c1ccc(O)c(O)c1 (stereo not drawn),,"ventricular cardiomyocytes, C57BL/6 mouse","dose not given, 0.792 s",,sarcomere length,1.67 µm
C[C@H](NC(=O)c1c(C(F)F)nn(C)c1Oc1cccc(C(F)(F)F)c1)c1ccc(C(=O)O)cc1,,"human, advanced tumours","250 mg, irRECIST",,partial response,0%
